Results of several laboratories.
Each numbered part is a random draw from the data of one study; scales do not carry over between parts.

Study 1
Target: Histone acetyltransferase KAT6A, winged helix 1, GST fusion (KAT6A, Homo sapiens, UniProt Q92794, residues 1-85)
Method: protein binding microarray
Molecule type: double-stranded DNA, one strand shown
Matrix: in vitro
Concentration: not given
Setting: 8-mer, flanks averaged, mean of 2 arrays, mostly near background
Reference: not given
Direction: higher = stronger binding
Target sequence (chain): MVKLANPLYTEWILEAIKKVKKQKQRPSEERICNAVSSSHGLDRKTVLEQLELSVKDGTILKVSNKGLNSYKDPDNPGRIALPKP
Oligonucleotide	E-score
GGTCTGAC	0.0506
ATACGCTC	0.08
AGAACCTA	-0.0862
GAGCGCGC	0.433
AATGCGCC	0.323
CGATCTCC	-0.043
CCTGTTAC	-0.111
CGGGATAC	0.246

Study 2
Target: Max-binding protein MNT, bHLH-zipper, MAX partner unstated (MNT, Homo sapiens, UniProt Q99583, residues 220-300)
Method: protein-binding microarray
Molecule type: double-stranded DNA, one strand shown
Matrix: in vitro
Concentration: not given
Setting: k-mer, scored over probes, only values ≥0.25
Direction: higher = stronger binding
Target sequence (chain): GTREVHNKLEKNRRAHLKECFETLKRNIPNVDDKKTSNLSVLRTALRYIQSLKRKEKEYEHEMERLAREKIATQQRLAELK
Oligonucleotide	E-score
ACATGCTG	0.431
CGCCACGA	0.25
ACATGTAT	0.367
CGCGCAAC	0.266
AACGTGGG	0.407

Study 3
Target: Sal-like protein 4, full length isoform A (SALL4, Homo sapiens, UniProt Q9UJQ4, residues 1-1053)
Sequence of UniProt Q9UJQ4 (whole entry, looked up): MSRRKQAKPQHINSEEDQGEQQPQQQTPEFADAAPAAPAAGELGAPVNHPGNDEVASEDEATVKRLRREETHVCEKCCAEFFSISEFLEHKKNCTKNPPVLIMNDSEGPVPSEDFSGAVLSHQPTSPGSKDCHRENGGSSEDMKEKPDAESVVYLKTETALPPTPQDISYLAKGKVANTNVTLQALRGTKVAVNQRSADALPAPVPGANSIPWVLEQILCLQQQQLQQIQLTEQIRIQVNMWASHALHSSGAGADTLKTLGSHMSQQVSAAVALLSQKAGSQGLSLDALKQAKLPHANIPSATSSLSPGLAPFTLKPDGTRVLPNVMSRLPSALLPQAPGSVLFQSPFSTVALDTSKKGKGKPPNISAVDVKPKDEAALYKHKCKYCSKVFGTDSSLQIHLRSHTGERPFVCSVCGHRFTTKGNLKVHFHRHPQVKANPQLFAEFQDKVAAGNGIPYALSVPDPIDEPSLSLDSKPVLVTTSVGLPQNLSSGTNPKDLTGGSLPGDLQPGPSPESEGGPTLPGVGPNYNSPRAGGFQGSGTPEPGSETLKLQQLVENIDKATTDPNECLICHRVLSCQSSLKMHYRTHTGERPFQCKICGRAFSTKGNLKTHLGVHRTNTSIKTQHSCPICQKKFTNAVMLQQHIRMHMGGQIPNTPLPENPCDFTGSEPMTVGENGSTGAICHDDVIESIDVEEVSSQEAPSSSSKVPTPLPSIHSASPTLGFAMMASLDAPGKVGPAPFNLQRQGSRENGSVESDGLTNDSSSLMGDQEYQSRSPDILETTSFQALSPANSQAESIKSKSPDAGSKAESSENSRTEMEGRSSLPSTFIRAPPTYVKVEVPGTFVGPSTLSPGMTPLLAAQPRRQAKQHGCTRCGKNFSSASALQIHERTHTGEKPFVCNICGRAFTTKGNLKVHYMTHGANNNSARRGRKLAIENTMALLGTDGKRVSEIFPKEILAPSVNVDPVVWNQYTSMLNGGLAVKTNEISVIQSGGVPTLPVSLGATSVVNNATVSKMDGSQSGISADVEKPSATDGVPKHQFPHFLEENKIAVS
Method: universal PBM
Molecule type: double-stranded DNA, one strand shown
Matrix: in vitro
Concentration: 600 nM
Setting: 8-mer, flanks averaged, mean of replicates
Direction: higher = stronger binding
Oligonucleotide	E-score
ACTTCGCC	-0.0875
GGTGCTCA	-0.197
CATAAAAG	0.316
ACATCGAC	-0.0493
ATGGTAGC	-0.113
ACTATCAT	0.298
ACGGCGTG	-0.165
TCCTTGCA	-0.269
AGATAAAC	0.247

Single results of other studies
Molecule	target	assay	test system	setting	how to read	endpoint	value
PhoQ, residues 284 288 289 292 302 303 SLSVQF	PhoP, residues 12 14 15 18 19 AYFRS (Escherichia coli, UniProt P23836)	Sort-seq, item: YFP reporter	E. coli	PhoQ-PhoP variant library, with: 10 µM Mg2+	reference: high Mg2+ state, higher = stronger signaling	fold induction	0.985

Excerpt of the above (study 2):
Oligonucleotide	E-score
ACATGCTG	0.431
CGCCACGA	0.25
